Experimental data pooled from the literature.
Protocols differ between the studies behind these lines. Numbers after ± are the reported error.
CA2: Carbonic anhydrase 2 (CA2, Homo sapiens, UniProt P00918)
DRD4: D(4) dopamine receptor (DRD4, Homo sapiens, UniProt P21917)
Sequence of UniProt P21917 (whole entry, looked up): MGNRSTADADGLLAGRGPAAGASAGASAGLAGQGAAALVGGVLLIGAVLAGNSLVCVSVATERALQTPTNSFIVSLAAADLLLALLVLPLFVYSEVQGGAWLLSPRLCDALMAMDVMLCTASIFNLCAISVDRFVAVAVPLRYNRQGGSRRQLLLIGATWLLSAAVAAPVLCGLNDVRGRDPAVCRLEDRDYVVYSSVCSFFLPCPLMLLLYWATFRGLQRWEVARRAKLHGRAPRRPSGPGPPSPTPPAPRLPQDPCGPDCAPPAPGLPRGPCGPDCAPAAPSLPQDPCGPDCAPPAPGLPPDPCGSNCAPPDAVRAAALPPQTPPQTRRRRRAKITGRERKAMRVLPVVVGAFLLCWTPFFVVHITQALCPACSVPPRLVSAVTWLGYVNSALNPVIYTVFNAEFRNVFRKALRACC
CA12: Carbonic anhydrase 12 (CA12, Homo sapiens, UniProt O43570)
Sequence of UniProt O43570 (whole entry, looked up): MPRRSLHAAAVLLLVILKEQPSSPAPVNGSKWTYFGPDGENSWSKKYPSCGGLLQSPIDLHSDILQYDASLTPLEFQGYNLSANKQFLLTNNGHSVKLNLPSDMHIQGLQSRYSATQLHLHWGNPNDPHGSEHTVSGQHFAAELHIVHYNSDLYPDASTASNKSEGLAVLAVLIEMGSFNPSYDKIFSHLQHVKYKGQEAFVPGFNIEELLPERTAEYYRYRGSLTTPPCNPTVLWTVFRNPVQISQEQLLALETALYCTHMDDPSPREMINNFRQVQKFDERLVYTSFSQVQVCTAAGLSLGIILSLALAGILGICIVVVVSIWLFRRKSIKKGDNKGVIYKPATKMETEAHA
Chymotrypsin-C: Chymotrypsin-C (Homo sapiens, UniProt Q99895)
Sequence of UniProt Q99895 (whole entry, looked up): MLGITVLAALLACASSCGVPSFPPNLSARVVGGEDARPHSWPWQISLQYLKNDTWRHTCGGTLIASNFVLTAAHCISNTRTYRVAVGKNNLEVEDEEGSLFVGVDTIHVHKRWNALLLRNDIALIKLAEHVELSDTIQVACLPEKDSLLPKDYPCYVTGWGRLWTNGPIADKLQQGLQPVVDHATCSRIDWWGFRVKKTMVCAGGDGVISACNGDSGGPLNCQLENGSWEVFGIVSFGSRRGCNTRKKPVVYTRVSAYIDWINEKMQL
Sequence of UniProt Q13547 (whole entry, looked up): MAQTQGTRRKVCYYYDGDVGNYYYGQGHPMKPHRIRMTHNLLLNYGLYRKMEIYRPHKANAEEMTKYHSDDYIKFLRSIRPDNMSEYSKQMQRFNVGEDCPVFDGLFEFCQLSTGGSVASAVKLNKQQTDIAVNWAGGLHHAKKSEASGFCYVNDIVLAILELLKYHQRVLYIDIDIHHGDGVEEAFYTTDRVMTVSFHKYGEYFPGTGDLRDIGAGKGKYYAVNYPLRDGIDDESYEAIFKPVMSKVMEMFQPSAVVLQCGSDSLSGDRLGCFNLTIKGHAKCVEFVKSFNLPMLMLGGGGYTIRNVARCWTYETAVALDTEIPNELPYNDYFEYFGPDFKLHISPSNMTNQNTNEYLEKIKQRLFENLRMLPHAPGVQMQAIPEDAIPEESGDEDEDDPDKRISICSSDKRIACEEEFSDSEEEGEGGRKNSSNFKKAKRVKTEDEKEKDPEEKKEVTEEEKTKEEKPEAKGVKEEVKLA
Sequence of UniProt P29466 (whole entry, looked up): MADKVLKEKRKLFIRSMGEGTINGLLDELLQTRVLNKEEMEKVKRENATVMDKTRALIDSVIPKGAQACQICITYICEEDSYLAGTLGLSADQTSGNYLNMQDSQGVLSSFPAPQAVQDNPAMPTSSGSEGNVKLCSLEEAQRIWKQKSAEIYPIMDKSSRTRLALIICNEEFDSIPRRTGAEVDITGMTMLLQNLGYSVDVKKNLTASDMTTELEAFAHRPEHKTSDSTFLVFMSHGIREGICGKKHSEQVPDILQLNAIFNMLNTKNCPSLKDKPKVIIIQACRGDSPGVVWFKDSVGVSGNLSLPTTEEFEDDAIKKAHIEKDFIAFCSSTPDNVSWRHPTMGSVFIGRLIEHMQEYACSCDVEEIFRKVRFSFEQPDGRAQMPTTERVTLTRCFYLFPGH
Sequence of UniProt Q9Y6E0 (whole entry, looked up): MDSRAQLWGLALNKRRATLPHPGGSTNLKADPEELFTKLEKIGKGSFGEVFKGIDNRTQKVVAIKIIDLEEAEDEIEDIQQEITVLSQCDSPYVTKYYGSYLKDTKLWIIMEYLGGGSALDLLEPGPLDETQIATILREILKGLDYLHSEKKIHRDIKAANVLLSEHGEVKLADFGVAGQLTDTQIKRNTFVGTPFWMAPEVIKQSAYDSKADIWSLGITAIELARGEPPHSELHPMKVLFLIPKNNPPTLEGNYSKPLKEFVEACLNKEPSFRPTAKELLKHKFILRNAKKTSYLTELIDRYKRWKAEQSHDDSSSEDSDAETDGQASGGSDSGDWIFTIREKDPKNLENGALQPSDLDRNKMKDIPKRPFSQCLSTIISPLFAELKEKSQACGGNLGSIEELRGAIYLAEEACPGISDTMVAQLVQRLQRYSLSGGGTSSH
Sequence of UniProt P47936 (whole entry, looked up): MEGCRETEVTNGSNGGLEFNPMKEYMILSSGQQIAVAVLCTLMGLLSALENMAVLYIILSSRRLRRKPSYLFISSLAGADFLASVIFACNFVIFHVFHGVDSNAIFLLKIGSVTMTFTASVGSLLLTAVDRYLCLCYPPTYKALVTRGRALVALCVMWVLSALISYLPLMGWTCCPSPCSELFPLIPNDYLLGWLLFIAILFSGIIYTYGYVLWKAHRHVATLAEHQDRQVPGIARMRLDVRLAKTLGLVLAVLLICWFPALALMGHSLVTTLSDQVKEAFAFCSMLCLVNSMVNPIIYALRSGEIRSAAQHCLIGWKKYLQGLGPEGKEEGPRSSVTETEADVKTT
Sequence of UniProt P41143 (whole entry, unmodified, looked up): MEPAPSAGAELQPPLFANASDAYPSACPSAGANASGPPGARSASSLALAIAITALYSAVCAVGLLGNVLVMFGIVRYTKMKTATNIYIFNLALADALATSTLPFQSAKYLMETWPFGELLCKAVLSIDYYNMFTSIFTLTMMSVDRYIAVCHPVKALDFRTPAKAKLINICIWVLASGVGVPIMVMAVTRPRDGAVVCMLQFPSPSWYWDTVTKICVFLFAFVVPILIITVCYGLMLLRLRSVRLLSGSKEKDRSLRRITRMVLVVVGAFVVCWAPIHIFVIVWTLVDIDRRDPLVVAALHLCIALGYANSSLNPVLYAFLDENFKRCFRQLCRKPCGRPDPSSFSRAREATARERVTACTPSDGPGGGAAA
Sequence of UniProt P20248 (whole entry, looked up): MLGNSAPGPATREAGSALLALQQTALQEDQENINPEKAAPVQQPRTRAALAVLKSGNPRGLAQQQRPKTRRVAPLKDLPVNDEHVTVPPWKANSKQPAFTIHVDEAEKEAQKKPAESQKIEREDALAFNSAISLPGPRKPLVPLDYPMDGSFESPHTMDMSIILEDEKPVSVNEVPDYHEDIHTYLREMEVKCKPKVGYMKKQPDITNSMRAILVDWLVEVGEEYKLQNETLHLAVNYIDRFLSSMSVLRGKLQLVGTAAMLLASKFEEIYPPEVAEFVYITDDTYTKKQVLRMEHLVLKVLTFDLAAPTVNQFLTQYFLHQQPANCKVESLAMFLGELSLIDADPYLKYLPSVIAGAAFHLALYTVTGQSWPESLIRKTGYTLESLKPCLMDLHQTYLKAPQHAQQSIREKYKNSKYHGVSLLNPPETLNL
Sequence of UniProt Q9HCP0 (whole entry, looked up): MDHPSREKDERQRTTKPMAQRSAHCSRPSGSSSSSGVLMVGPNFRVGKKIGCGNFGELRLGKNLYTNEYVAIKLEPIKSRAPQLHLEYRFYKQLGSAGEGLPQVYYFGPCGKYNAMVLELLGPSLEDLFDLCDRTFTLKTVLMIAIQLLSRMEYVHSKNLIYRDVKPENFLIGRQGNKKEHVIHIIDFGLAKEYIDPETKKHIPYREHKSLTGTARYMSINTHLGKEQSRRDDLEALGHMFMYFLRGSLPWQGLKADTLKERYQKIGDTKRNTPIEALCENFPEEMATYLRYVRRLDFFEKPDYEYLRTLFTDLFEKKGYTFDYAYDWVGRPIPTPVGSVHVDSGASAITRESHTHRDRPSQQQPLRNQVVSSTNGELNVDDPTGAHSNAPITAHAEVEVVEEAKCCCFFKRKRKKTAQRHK
Sequence of UniProt Q9UKI8 (whole entry, looked up): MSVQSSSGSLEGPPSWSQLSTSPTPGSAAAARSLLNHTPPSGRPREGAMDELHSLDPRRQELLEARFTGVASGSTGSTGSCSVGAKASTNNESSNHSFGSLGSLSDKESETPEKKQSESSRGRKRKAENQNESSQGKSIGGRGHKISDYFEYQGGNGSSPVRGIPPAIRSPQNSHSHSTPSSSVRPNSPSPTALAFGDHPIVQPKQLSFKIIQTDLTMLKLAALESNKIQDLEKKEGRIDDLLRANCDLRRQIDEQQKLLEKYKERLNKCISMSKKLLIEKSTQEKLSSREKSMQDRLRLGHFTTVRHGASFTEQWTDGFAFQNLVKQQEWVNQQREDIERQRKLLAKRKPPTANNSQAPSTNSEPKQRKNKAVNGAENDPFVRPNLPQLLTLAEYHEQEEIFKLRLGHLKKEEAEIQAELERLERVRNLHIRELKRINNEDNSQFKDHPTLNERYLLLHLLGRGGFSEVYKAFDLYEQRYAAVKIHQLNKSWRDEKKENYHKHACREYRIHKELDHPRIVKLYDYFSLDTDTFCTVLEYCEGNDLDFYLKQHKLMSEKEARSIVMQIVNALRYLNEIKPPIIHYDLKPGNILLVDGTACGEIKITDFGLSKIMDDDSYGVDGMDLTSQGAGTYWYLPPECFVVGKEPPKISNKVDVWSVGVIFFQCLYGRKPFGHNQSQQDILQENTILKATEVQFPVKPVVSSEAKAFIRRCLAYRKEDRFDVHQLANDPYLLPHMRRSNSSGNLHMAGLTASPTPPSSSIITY

O=C1NC2(CC2)COc2ncc(F)cc2[C@H]2COCCN2c2ccn3ncc1c3n2
serum triglycerides (Sprague-Dawley rat, female, serum; oral, 2.5 mg/kg/day, end of treatment, 4-week subacute toxicity): 0.76 ± 0.84 mmol/L

COc1ccc(S(=O)(=O)Oc2ccc(/C=N/NS(=O)(=O)c3cc(Cl)ccc3Cl)cc2)cc1
Ki (CA2; enzyme activity, inhibitor, absorbance): 17.8 nM

COc1cc2c(cc1O)C(CCc1ccc(Cl)cc1)N(C)CC2 (stereo not drawn)
Ki (DRD4; cell-free assay, radioligand): 1300 nM

N[C@H]1CCOC1=O
Ki (CA12; CO2 hydration activity, inhibitor, stopped-flow CO2 hydration; room temperature preincubation): > 100000 nM

CC(C)(C)C(=O)OCOP(=O)(OCOC(=O)C(C)(C)C)C1CCCN(O)C1=O (stereo not drawn)
log TGI (SF-268): -4.7 log M

O=C1NC(=O)c2c1c1cc(F)c[n+]3c1c1c2c2cc(O)ccc2[n]1[Ru-4]312([N]=C=S)[S+]3CC[S+]1CC[S+]2CC3 (stereo not drawn)
remaining activity (Casein kinase I isoform gamma-1 (CSNK1G1, Homo sapiens, UniProt Q9HCP0); enzyme activity; 100 nM, human enzyme, added: 10 µM ATP; baseline: untreated): 3%

COc1ccc(S(=O)(=O)Oc2ccc(/C=N/NS(=O)(=O)c3ccc(Cl)cc3)cc2)cc1
Ki (CA2; enzyme activity, inhibitor, absorbance): 414 nM

CS(C)(=O)=Nc1ccc(-c2ccc(-c3nc4cc(O[C@@H]5CO[C@H]6[C@@H]5OC[C@H]6O)[nH]c4cc3F)cc2)cc1
inhibition (Serine/threonine-protein kinase tousled-like 1 (TLK1, Homo sapiens, UniProt Q9UKI8); enzyme activity, inhibitor; 10 µM): -15%

O=S(=O)(N/N=C/c1ccc(OS(=O)(=O)c2ccccc2)cc1)c1cc(Cl)ccc1Cl
Ki (CA2; enzyme activity, inhibitor, absorbance): 81.5 nM

COc1ccccc1-c1n[nH]c2nc(NC3CCN(C(=O)Cc4ccc(F)cc4F)CC3)ncc12
relative abundance (bead binding, competition bead pull-down, item: LINJ.30.0120; Leishmania donovani extract; 10 µM; baseline: vehicle): 1.25

CSCC[C@@H]1NC(=O)[C@H](Cc2ccccc2)NC(=O)[C@H]([C@@H](C)O)NC(=O)[C@@H]2CSSC[C@@H]3NC(=O)[C@H]([C@@H](C)O)NC(=O)[C@H](CC(N)=O)NC(=O)[C@H](CSSC[C@@H](C(=O)N[C@@H](CC(=O)O)C(=O)N[C@@H](CCC(N)=O)C(=O)O)NC(=O)[C@H](CC(C)C)NC1=O)NC(=O)[C@H](CCCCN)NC(=O)[C@H](CC(=O)O)NC(=O)[C@H](CCCCN)NC(=O)[C@H](Cc1ccccc1)NC(=O)[C@H]([C@@H](C)O)NC(=O)[C@H]([C@@H](C)O)NC(=O)CNC(=O)[C@@H]1CCCN1C(=O)[C@H](CCC(=O)O)NC(=O)[C@@H](NC(=O)[C@@H](NC(=O)[C@@H](NC(=O)[C@H](CCC(=O)O)NC(=O)[C@H](CO)NC(=O)CN)C(C)C)[C@@H](C)O)CSSC[C@H](NC(=O)[C@H](CCCNC(=N)N)NC3=O)C(=O)NCC(=O)N[C@@H](CO)C(=O)N[C@@H](CC(=O)O)C(=O)NCC(=O)N[C@@H](CCCCN)C(=O)N[C@@H](CO)C(=O)N[C@@H](C)C(=O)N[C@@H](C)C(=O)N2
Ki (Chymotrypsin-C; enzyme activity, inhibitor): 0.54 ± 0.05 nM

CCCCCCCCCCN(O)C(=O)CCCCC[C@@H]1NC(=O)[C@H]2CCCN2C(=O)[C@H](Cc2ccccc2)NC(=O)[C@H](Cc2ccccc2)NC1=O
Ki (Histone deacetylase 1 (HDAC1, Homo sapiens, UniProt Q13547); enzyme activity, inhibitor, fluorescence): 2.9 nM

CC(C)C[C@H](NC(=O)[C@H](CCCNC(=N)N)NC(=O)[C@H](CCCNC(=N)N)NC(=O)[C@H](CCCCN)NC(=O)[C@@H](NC(=O)[C@@H]1CCCN1C(=O)[C@@H]1CCCN1C(=O)[C@H](CCCNC(=N)N)NC(=O)CN)C(C)C)C(=O)N[C@@H](CC(=O)O)C(=O)N[C@@H](CC(C)C)C(=O)N[C@@H](CCC(=O)O)C(=O)N[C@H](C(=O)N[C@@H](CC(=O)O)C(=O)N[C@@H](Cc1c[nH]cn1)C(=O)N[C@@H](CCC(N)=O)C(=O)O)[C@@H](C)O
Ki (Cyclin-A2 (CCNA2, Homo sapiens, UniProt P20248); probe binding, fluorescence polarization competition; pH 8.0): 3000 ± 2000 nM

Cc1c(Cl)c(=O)oc2cc(OCCCCCC[Se]C#N)ccc12
Ki (CA2; enzyme activity, inhibitor, stopped-flow): > 100000 nM

CSCC[C@@H]1NC(=O)[C@H](CCSC)NC(=O)[C@H]([C@@H](C)O)NC(=O)[C@@H]2CSSC[C@@H]3NC(=O)[C@H]([C@@H](C)O)NC(=O)[C@H](CC(N)=O)NC(=O)[C@H](CSSC[C@@H](C(=O)N[C@@H](CC(=O)O)C(=O)N[C@@H](CCC(N)=O)C(=O)O)NC(=O)[C@H](CC(C)C)NC1=O)NC(=O)[C@H](CCCCN)NC(=O)[C@H](CC(=O)O)NC(=O)[C@H](CCCCN)NC(=O)[C@H](Cc1ccccc1)NC(=O)[C@H]([C@@H](C)O)NC(=O)[C@H]([C@@H](C)O)NC(=O)CNC(=O)[C@@H]1CCCN1C(=O)[C@H](CCC(=O)O)NC(=O)[C@@H](NC(=O)[C@@H](NC(=O)[C@@H](NC(=O)[C@H](CCC(=O)O)NC(=O)[C@H](CO)NC(=O)CN)C(C)C)[C@@H](C)O)CSSC[C@H](NC(=O)[C@H](CCCNC(=N)N)NC3=O)C(=O)NCC(=O)N[C@@H](CO)C(=O)N[C@@H](CC(=O)O)C(=O)NCC(=O)N[C@@H](CCCCN)C(=O)N[C@@H](CO)C(=O)N[C@@H](C)C(=O)N[C@@H](Cc1ccc(O)cc1)C(=O)N2
Ki (Chymotrypsin-C; enzyme activity, inhibitor): 1.76 ± 0.35 nM

CN(C)[C@H]1C[C@@]23CC[C@@]4(O2)C(=CC[C@]2(C)[C@@H](c5ccc6ccncc6c5)CC[C@H]24)C=C3[C@@H](O)[C@@H]1O
inhibition (Serine/threonine-protein kinase 24 (STK24, Homo sapiens, UniProt Q9Y6E0); ATP probe labelling, inhibitor, KiNativ profiling; 1 µM): 0.9%

CC(C)[C@H](NC(=O)[C@@H](N)CCC(=O)O)C(=O)N[C@@H](CC(N)=O)C(=O)N[C@@H](Cc1ccc(O)cc1)C(=O)N[C@@H](CC(=O)O)C(=O)N[C@@H](Cc1ccccc1)C(=O)NCC(=O)NCC(=O)N[C@@H](CCCCN)C(=O)O
Ki (Angiotensin-converting enzyme (ACE, Homo sapiens, UniProt P12821); enzyme activity, inhibitor, absorbance): 201000 nM

O=C1c2ccccc2CCCN1CCCCN1CCN(c2cccc(Cl)c2Cl)CC1
Ki (DRD4; ligand displacement, radioligand): 9 nM

CCOC(=O)C(CC)(CC)NC(=O)c1ccc(C2CC2)c(Cc2ccc(F)cc2)n1
Ki (Cannabinoid receptor 2 (Cnr2, Mus musculus, UniProt P47936); ligand displacement, radioligand; cell membranes): 1.8 nM

CC(C)CC(C(=O)N1CC2(CC1C#N)C(=O)Nc1ccccc12)N(C)C(=O)c1cc2c(F)cc(F)c(F)c2[nH]1 (stereo not drawn)
IC50 (Caspase-1 (CASP1, Homo sapiens, UniProt P29466); enzyme activity, inhibitor): > 100000 nM

COc1ccccc1-c1n[nH]c2nc(N[C@H]3CC[C@H](NS(=O)(=O)CC(C)C)CC3)ncc12
relative abundance (bead binding, competition bead pull-down, item: LMJF.35.0980; Leishmania donovani extract; 10 µM; baseline: vehicle): 0.98

N[C@H]1CCSC1=O
Ki (CA12; CO2 hydration activity, inhibitor, stopped-flow CO2 hydration; room temperature preincubation): > 100000 nM

C[C@@H](CN1CCC(Cc2ccccc2)CC1)[C@@H](O)c1ccc(O)cc1
Ki (DRD4; cell-free assay): 117 nM

Cc1cc(O)cc(C)c1C[C@H](N)C(=O)N[C@H](CCCNC(=N)N)C(=O)N[C@@H](Cc1ccccc1)C(=O)N(C)CC(=O)N(C)Cc1cc(C(F)(F)F)cc(C(F)(F)F)c1
Ki (Delta-type opioid receptor (OPRD1, Homo sapiens, UniProt P41143, W284A)): 3.31 ± 0.65 nM
